Experimental data pooled from the literature.
A part holds a random share of what one study measured. Changes are numbered by the printed parent chain.

Block 1
Target: Transcriptional repressor CTCF (CTCF, Homo sapiens, UniProt P49711, residues 1-727, full length assumed)
UniProt P49711, sequence (whole entry, looked up): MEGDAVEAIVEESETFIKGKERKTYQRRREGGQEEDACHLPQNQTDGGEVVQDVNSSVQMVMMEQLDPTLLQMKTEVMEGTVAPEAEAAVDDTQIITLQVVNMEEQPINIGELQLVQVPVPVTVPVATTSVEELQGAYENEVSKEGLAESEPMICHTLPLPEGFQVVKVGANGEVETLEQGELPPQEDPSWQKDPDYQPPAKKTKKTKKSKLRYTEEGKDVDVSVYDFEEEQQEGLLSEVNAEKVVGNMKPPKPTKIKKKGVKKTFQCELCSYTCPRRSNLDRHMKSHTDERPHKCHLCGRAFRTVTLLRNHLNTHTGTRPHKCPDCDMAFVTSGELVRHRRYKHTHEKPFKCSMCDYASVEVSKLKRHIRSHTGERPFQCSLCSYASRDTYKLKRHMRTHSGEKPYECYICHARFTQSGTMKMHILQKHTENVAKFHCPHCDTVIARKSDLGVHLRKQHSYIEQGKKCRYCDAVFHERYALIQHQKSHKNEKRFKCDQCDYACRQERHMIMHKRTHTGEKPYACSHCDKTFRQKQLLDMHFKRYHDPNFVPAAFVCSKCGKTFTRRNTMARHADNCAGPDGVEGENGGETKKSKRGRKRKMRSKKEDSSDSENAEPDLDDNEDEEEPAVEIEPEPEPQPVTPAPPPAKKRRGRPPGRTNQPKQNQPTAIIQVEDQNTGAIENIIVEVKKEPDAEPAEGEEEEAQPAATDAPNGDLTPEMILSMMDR
Technique: protein-binding microarray
Molecule type: double-stranded DNA, one strand shown
Sample: in vitro
Concentration: not given
Notes: k-mer, scored over probes, only values ≥0.25
Direction: higher = stronger binding
Oligonucleotide | E-score
TTGCGCAA | 0.314
ATTCACAA | 0.265
CTAATAAA | 0.287
ATATTTTA | 0.321
TAATGTAA | 0.296
ATTATATC | 0.295
CCATATAC | 0.276
TATATAAA | 0.386
GATGTATA | 0.264
TTATTAAA | 0.352
AAATCACC | 0.262
CCGCATAA | 0.296
ATATTACA | 0.36
AGTATTAC | 0.29
GTCTAATA | 0.264
ATACACAG | 0.292
ATGTAAAA | 0.293
CGCGCGCC | 0.309
CATTATCA | 0.277
AAGCGCTA | 0.252
CGCATACG | 0.292
CAATTACA | 0.255

Block 2
Target: ABI1, truncated, D143A, DHFR fusion (Arabidopsis thaliana)
Technique: DHFR PCA, deep sequencing
Sample: yeast
Notes: methotrexate growth selection, single substitutions
Added: (+)-ABA 0.0091 µM
Reference: wild-type fitted maximum
Direction: higher = stronger binding
Parent: PYL1, truncated, DHFR fusion (Arabidopsis thaliana); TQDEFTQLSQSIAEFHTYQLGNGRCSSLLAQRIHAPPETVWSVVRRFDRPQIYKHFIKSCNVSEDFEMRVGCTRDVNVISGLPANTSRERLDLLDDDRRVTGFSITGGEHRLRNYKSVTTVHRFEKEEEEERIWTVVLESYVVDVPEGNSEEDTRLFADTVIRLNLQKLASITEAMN; partner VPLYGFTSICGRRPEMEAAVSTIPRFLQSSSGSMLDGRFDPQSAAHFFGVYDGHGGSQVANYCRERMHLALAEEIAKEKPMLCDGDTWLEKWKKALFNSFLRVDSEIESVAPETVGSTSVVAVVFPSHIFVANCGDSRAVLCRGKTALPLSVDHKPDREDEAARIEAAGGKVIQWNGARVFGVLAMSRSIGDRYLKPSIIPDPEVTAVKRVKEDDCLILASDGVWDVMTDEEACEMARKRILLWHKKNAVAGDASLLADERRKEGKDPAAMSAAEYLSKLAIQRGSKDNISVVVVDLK
Change | relative binding score [%]
V137H | -9.57
M176G | 8.73
V118W | 0.303
V121C | 4.09
S140V | -1.76
V62S | 10
L138E | 3.18
I133W | 7.87
S9I | 24.4
L93R | 4.02
I172D | -5.58
Q19H | 19.9
L93Q | -2.31
E151Q | 19.4
L138G | 3.34
E38P | 4.29
L82D | 6.54

Block 3
Target: Ras GTPase-activating protein-binding protein 1, RRM domain (G3BP1, Homo sapiens, UniProt Q13283)
UniProt Q13283, sequence (whole entry, looked up): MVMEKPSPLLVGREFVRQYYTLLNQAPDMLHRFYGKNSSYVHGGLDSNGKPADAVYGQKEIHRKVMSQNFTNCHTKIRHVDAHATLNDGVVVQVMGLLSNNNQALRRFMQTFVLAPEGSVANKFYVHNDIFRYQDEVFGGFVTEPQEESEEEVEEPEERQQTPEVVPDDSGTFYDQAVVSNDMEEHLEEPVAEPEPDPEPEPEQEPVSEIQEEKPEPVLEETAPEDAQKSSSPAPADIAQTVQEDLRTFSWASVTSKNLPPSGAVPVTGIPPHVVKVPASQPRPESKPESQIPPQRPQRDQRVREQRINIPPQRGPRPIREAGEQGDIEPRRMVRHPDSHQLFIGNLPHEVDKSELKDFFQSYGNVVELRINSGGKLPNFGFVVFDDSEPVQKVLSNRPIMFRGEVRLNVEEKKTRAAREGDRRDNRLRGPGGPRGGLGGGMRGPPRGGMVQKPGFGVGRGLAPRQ
Technique: RNA Bind-n-Seq
Molecule type: RNA
Sample: in vitro
Concentration: 1 µM
Notes: whole 134-nt RNA, ends assumed
Added: 150 mM KCl
Reference: input library
Direction: higher = stronger binding
Oligonucleotide | log2 enrichment
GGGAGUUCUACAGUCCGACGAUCCACAGACAACACGCACCCACACAGACACAGAGGGAAGGGGUUGGGAUGGGGACAGGGUCCACAGCAGGGCGGGGUAGGACCCCAGCCCCUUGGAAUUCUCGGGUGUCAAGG | -0.0854
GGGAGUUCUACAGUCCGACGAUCGCAGGAAGCAAAAACAAAUGGAAAUGCUUCGGAUAGUGGCAGGGGUGGGGGUUGCUAAGGAAAGGGUGGGAUGGGAGUGGGUAAAGAGUUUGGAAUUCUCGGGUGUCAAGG | 1.69
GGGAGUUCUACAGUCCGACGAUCGUCCUGUGCUACACAUCGUAUGUACCGAAUCGGAAAAAAGGGAAAAAAGGAAAAAAGGGAAAGUAUUAUGUUACGCCGUUCGGAUCUGCAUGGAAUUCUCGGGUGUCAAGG | 0.0311
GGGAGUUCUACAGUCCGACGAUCCUGUGCUACACAUCGUAUGUACCGAAUCGGUUUUUUUGGGUUUUUUUGGGGUUUUUUUGGGAAAGUAUUAUGUUACGCCGUUCGGAUCUGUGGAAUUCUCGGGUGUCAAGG | -0.266
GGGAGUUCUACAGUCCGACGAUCUAACUUUAGAGGAGGAUCUGAUGGAUAUGGCAGUGGACGUGGAUUUGGGGAAGGCUAUAAUGGGUAUGGAGGAGGACCUGGAGGUGGCAAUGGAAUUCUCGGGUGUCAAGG | -0.217
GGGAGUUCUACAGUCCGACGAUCUGUUGGGCUUCGAUCCCAGGUGGAUGAUGAUGCCUUCCUACAUGGACCCACGUAUCACGCCCACUCGGACCCCGGUGGACUUCUACCCCUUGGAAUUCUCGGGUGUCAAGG | -0.325
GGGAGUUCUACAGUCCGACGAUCAAGUCCUGUGCUACACAUCGUAUGUACCGAAUCGGGGAAAGGAAAGGGGAAAGGGGAAAGUAUUAUGUUACGCCGUUCGGAUCUGCACUUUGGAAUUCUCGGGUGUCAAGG | 0.197
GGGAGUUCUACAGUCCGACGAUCGCAGGAAGUAAAAACAAAUGGAAAUGCUUCGGAUAGUGGCCGGGGUGGGGGUUGCUAAGGAAAGGGUGGGAUGGGAGUGGGUAAAGAGUUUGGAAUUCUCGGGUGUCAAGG | 1.29
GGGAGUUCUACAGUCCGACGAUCCCUGUGCUACACAUCGUAUGUACCGAAUCGGGGAGGGGUUUUUUUGGGGUUUUUUUGGGGAAAGUAUUAUGUUACGCCGUUCGGAUCUGCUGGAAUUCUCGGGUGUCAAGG | 0.423
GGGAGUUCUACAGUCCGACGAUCCAAGUCCUGUGCUACACAUCGUAUGUACCGAAUCGGGAAAAAGGGUUUGGGAGGGAAAGUAUUAUGUUACGCCGUUCGGAUCUGCACUUCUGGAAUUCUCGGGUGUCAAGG | 0.871

Block 4
Target: CCNE2, cyclin fold, Cln2 fusion (human)
Technique: yeast growth competition, sequencing
Sample: yeast
Notes: strong parent motif
Reference: not given
Direction: higher = stronger binding
Parent: WEE1 docking peptide (human); HKTFRKLRLFDTP
Change | normalised enrichment score
HKTFRKLRLFDIP [T12I] | 0.862
HKQFRKLRLFDTP [T3Q] | 0.193
HKTFRKIRLFDTP [L7I] | 1.29
HKTFRMLRLFDTP [K6M] | 0.205
HKTFCKLRLFDTP [R5C] | -0.146
HKTFRKLRAFDTP [L9A] | 0.595
HKTFRKLRYFDTP [L9Y] | 1.31
HKTFRKLRLFCTP [D11C] | 1.28
HKWFRKLRLFDTP [T3W] | 0.379
HHTFRKLRLFDTP [K2H] | 1.1
FKTFRKLRLFDTP [H1F] | -0.286
HKTFIKLRLFDTP [R5I] | 0.642
HKTFRKLRLNDTP [F10N] | -0.0397
MKTFRKLRLFDTP [H1M] | 0.834
HKTHRKLRLFDTP [F4H] | 1.09
HKTNRKLRLFDTP [F4N] | 0.812
NKTFRKLRLFDTP [H1N] | 0.566
HKCFRKLRLFDTP [T3C] | 0.111
HGTFRKLRLFDTP [K2G] | 0.613
HKTFRKLCLFDTP [R8C] | 0.837
HLTFRKLRLFDTP [K2L] | 0.561
HKTFRKLRLFNTP [D11N] | -0.562
HKTFRKLRLFHTP [D11H] | 0.0338
HKTFRKLRLCDTP [F10C] | 0.436
HKTFRKLRLFDAP [T12A] | 0.271

Block 5
Target: Histone acetyltransferase KAT6A, both winged helices, GST fusion (KAT6A, Homo sapiens, UniProt Q92794, residues 1-181)
Technique: protein binding microarray
Molecule type: double-stranded DNA, one strand shown
Sample: in vitro
Concentration: not given
Notes: 8-mer, flanks averaged, mean of 2 arrays, mostly near background
Reference: not given
Direction: higher = stronger binding
Construct (chain): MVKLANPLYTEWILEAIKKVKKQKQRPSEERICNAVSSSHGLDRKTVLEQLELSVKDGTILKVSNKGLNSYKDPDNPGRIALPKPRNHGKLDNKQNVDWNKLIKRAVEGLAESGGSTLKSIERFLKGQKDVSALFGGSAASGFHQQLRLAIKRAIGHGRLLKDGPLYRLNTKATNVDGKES
Oligonucleotide | E-score
CCTATGTA | -0.189
CCGTAACC | 0.272
CCCCTTAC | -0.0318
CTCCACTC | -0.218
GCACAGGC | -0.033
GCCGATTA | 0.0719
CTTAGGGA | -0.108
AAGTGTGG | -0.24
CGCATCAA | 0.18
CAAAATCA | -0.0929
CGGGAGAC | 0.262
CTACATCA | -0.0602
GAAATGCC | 0.0533
CCGAAACG | 0.0751
AAAGGAGG | -0.217
AGTGTTCG | -0.0318
AGAGGCGA | -0.15
GACCGTGA | 0.119
ACCGGACT | 0.121
GCCAGTCA | -0.126
TGCTACCA | -0.183
CATTGAAG | -0.0258
AGCCACGC | 0.0618
CGAGACCG | 0.206
ACCTAGGC | 0.0092

Other studies, line by line
Substance | target | assay | test system | setting | scale | quantity | value
PhoQ, residues 284 288 289 292 302 303 ASSHFY | PhoP, residues 12 14 15 18 19 SFCSL (Escherichia coli, UniProt P23836) | Sort-seq, item: YFP reporter | E. coli | PhoQ-PhoP variant library, added: 10 µM Mg2+ | reference: high Mg2+ state, higher = stronger signaling | fold induction | 15.8
